# Experimental data of several laboratories.
# Values joined by “and” are separate records of one study, mostly repeats; a detail may differ. ± gives the spread as reported.
# CNR2: Cannabinoid receptor 2 (CNR2, Homo sapiens, UniProt P34972)
# UniProt P34972, sequence (whole entry, looked up): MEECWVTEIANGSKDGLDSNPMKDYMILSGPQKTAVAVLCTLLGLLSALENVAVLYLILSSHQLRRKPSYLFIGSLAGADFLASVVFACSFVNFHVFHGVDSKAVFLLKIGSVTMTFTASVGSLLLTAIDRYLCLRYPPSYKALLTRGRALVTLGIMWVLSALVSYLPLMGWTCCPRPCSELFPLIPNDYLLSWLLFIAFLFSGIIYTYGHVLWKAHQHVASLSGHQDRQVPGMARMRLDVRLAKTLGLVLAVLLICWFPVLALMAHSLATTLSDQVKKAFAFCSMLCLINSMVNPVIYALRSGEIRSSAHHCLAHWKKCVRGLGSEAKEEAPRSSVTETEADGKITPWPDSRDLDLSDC
# T1: riboswitch RNA, fused to Pepper aptamer; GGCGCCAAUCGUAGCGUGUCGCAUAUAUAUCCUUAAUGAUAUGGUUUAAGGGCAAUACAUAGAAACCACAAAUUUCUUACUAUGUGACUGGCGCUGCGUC
# T2: G-quadruplex DNA (Homo sapiens); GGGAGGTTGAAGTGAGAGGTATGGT
# UniProt P46089, sequence (whole entry, looked up): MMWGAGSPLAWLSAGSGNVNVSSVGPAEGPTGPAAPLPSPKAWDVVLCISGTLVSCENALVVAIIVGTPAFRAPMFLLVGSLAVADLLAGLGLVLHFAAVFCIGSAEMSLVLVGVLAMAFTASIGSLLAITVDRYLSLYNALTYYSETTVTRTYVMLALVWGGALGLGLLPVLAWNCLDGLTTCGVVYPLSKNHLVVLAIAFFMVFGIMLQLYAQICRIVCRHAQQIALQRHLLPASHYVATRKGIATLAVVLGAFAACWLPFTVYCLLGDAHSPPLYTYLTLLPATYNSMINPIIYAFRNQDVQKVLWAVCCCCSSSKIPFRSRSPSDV
# UniProt P30531, sequence (whole entry, looked up): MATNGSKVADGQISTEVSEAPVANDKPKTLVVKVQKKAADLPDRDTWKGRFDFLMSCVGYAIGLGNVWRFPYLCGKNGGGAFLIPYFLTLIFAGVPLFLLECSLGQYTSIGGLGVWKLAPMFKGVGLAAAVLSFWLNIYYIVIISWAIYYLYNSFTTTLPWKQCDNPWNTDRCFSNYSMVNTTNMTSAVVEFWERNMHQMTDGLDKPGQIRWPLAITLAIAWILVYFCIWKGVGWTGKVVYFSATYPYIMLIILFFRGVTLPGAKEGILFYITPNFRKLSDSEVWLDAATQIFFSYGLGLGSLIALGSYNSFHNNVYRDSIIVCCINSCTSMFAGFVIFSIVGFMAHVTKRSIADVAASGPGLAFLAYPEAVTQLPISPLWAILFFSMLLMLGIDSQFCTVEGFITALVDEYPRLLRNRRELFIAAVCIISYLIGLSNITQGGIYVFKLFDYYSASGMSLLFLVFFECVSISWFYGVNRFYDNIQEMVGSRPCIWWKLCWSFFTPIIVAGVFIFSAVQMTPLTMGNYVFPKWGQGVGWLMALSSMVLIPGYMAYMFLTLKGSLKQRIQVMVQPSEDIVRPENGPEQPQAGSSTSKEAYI
# UniProt Q6UB35, sequence (whole entry, looked up): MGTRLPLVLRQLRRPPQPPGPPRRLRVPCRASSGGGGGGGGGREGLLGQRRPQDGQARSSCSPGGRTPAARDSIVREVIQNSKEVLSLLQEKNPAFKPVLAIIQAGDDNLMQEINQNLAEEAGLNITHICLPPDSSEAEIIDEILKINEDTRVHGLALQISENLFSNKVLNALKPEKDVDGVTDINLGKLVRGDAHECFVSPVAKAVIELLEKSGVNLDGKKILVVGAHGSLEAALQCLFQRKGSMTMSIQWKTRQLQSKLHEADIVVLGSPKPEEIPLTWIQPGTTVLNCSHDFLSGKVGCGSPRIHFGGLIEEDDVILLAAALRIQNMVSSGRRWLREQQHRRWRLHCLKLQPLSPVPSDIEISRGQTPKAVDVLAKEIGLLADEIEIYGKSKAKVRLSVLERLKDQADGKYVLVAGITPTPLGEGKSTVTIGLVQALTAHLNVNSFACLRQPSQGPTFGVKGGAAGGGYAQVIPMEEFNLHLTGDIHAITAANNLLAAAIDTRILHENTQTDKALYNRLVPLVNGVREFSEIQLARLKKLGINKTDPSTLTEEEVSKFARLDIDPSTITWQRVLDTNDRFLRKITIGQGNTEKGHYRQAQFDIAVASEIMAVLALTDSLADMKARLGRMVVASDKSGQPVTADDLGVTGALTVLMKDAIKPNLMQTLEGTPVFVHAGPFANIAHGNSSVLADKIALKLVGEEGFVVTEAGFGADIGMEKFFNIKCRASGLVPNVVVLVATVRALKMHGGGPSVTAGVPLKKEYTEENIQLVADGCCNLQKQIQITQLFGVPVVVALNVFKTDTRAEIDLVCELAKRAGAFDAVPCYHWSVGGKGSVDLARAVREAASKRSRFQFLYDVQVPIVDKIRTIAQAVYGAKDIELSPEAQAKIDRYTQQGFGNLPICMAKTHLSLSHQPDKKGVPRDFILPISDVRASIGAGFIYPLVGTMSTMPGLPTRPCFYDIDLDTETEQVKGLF
# UniProt P19491, sequence (whole entry, looked up): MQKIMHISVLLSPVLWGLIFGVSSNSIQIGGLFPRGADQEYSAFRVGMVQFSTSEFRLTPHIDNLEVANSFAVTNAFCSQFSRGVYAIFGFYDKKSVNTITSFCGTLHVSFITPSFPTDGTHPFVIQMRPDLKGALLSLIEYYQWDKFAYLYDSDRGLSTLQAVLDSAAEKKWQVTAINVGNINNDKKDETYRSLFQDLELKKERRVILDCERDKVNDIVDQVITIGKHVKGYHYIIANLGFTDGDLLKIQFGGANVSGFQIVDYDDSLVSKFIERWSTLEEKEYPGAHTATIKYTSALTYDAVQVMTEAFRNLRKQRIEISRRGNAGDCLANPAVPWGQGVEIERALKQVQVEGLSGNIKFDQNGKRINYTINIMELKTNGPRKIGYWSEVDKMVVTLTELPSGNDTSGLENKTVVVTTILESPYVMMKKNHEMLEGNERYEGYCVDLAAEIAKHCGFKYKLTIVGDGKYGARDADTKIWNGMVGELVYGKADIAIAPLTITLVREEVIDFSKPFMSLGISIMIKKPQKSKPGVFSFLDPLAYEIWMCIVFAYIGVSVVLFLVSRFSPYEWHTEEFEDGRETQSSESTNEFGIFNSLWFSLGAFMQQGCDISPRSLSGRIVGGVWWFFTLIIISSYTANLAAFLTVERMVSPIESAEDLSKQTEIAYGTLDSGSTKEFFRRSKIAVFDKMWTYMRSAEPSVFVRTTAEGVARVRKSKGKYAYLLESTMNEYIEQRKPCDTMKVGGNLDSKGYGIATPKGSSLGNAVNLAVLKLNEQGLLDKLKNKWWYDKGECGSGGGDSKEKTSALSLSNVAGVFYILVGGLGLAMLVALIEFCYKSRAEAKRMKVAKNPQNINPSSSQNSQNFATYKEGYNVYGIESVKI
# UniProt Q9BY41, sequence (whole entry, unmodified, looked up): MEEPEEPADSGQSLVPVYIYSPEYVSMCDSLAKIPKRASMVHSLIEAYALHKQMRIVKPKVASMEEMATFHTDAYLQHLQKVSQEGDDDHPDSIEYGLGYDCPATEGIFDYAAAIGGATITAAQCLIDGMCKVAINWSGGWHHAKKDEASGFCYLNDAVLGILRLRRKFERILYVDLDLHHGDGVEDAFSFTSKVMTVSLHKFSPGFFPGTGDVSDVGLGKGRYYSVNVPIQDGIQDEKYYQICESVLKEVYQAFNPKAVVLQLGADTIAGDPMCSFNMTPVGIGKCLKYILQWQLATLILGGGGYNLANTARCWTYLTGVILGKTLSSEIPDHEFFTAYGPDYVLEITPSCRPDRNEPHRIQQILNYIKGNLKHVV
# UniProt P55210, sequence (whole entry, looked up): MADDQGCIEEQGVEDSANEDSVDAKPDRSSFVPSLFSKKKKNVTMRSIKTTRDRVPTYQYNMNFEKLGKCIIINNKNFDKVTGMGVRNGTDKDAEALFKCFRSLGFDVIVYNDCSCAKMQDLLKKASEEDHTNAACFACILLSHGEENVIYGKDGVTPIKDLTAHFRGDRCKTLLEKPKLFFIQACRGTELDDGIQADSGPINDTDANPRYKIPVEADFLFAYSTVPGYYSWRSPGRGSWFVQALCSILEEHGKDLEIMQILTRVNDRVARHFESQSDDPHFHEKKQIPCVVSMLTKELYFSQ
# UniProt Q16539, sequence (whole entry, unmodified, looked up): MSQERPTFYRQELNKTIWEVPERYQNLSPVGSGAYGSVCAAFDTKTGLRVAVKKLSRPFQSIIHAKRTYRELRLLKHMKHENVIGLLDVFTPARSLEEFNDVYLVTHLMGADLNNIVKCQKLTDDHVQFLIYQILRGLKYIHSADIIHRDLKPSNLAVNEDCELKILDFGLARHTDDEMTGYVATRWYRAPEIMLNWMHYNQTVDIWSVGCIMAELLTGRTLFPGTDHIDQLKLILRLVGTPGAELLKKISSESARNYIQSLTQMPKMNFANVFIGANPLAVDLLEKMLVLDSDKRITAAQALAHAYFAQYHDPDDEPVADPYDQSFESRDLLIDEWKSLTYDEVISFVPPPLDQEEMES
# UniProt P00921, sequence (whole entry, looked up): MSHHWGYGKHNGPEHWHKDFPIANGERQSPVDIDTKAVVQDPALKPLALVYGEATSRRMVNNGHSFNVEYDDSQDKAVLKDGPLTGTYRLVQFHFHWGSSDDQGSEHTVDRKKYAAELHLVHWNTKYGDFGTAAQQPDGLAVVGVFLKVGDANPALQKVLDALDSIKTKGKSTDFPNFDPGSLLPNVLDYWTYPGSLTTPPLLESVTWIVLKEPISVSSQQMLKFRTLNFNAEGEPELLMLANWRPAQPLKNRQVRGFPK
# UniProt P17706, sequence (whole entry, unmodified, looked up): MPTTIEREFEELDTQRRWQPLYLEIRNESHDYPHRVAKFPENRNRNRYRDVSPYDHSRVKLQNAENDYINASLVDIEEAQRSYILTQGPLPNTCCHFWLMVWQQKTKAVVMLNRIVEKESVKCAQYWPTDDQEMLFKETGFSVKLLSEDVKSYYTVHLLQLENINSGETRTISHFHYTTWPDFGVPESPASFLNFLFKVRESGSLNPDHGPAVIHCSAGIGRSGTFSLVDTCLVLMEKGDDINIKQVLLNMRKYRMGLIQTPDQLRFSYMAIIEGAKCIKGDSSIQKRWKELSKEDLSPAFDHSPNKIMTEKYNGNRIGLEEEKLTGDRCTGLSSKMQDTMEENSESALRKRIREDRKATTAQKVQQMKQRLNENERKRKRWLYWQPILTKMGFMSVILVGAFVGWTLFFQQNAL
SMILES,target,test,test system,conditions,scale,quantity,value
COc1ccc(C(OCCN2CCCC(C(=O)O)C2)(c2ccc(OC)cc2)c2ccc(OC)cc2)cc1 (stereo not drawn),"Sodium- and chloride-dependent GABA transporter 1 (SLC6A1, Homo sapiens, UniProt P30531)","GABA transport, inhibitor, radioligand uptake",HEK293F transfected,"1.28 nM, 15 min pre, 45 min uptake, room temperature, together with: [3H]-GABA 30 nM, GABA 25 µM",higher = more uptake,[3H]-GABA uptake,4040 a.u. and 1120 a.u. and 1330 a.u. and 1430 a.u. and 1490 a.u. and 1240 a.u. and 4300 a.u. and 1200 a.u.
COc1ncc2nc(C)n(Cc3ncc(S(N)(=O)=O)cc3F)c2c1-c1ccccc1,CNR2,"agonist, cell-based",,10 µM,,activation,8.48%
CC1(C)C[C@@H](Nc2cccc(-c3sc(C(=O)O)c(OCC(=O)O)c3Cl)c2)CCN1S(=O)(=O)Cc1cccc(NC(=O)CN2CCC(c3ccc4c(c3)oc(=O)n4C3CCC(=O)NC3=O)CC2)c1 (stereo partly drawn),"Tyrosine-protein phosphatase non-receptor type 2 (PTPN2, Homo sapiens, UniProt P17706, H30A/P33A/R35A)","degrader, bio-layer interferometry",,62.5 nM,higher = more binding,BLI binding response,0.397 a.u.
Cc1ccc(-n2cc(CNC(=O)c3cncc(Br)c3)cn2)cc1,human kinase panel,"binding, KINOMEscan",,"10000 nM, %Ctrl below 35",,number of kinases hit,0
Nc1nc2[nH]cnc2c(=O)[nH]1,"T1, riboswitch RNA, fused to Pepper aptamer",fluorescence,,5 µM,,binding,binds
NS(=O)(=O)c1ccc(N2C(=O)c3ccc(N4CCOCC4)cc3C2=O)cc1,"Carbonic anhydrase 2 (CA2, Bos taurus, UniProt P00921)",binding,,,,emission maximum,533 nm
Fc1ccc(Nc2nc(NC3CCCCC3)c3cc(C(F)(F)F)ccc3n2)cc1F,"Beta-2 adrenergic receptor (ADRB2, Homo sapiens, UniProt P07550, I153L)","β-arrestin2 recruitment, antagonist, BRET",,mutant I153L,reference: isoprenaline maximal response,maximal inhibition,-2.4%
CCOC(=O)C(CC)(CCCSCCOCCOCCNC(=O)OC(C)(C)C)NC(=O)c1ccc(C2CC2)c(Cc2ccc(F)cc2)n1 (racemic),CNR2,radioligand binding,,,reference: CB1 over CB2 (human),Ki ratio,7
CC(C)Oc1cc(Cl)ccc1CNc1cc(-c2ccccc2)nc2ncnn12,"G-protein coupled receptor 3 (GPR3, Homo sapiens, UniProt P46089)",cAMP reporter,human cells,100 pM,higher is more cAMP,cAMP luminescence,39100 a.u. and 48400 a.u. and 34900 a.u. and 27900 a.u. and 27400 a.u.
CN(C)c1ccc(C2=C/C(=C/C=C/c3sc4ccccc4[n+]3C)c3ccccc3O2)cc1,"T2, G-quadruplex DNA (Homo sapiens)",fluorescence turn-on,,,,binding,binds
COC(=O)[C@@]1(Cc2ccccc2)C=C(C(=O)OC(C)(C)C)C(=O)CC1,"Mitogen-activated protein kinase 14 (MAPK14, Homo sapiens, UniProt Q16539, C119V)","peptide binding, fluorescence polarization",,3.906 µM,,fraction bound,0.72
COC(=O)Cc1cc2c(cc1C(=O)c1ccccc1)OCO2,"Glutamate receptor 2 (Gria2, Rattus norvegicus, UniProt P19491)","glutamate-evoked current, whole-cell patch clamp",HEK-293T,"concentration not given, glutamate alone after washout, together with: glutamate",,current amplitude after recovery,1250 ± 59 pA
CC(=O)N[C@@H](Cc1c[nH]c2ccccc12)C(=O)N[C@@H](CCCNC(=N)N)C(=O)N[C@@H](CO)C(=O)N[C@@H](CC(=O)O)C(=O)COC(=O)c1c(C)cccc1C,"Caspase-7 (CASP7, Homo sapiens, UniProt P55210)","enzyme activity, inhibitor",,,,kinact/KI,300 M⁻¹ s⁻¹
Cc1cc(=O)oc2cc(NC(=O)CCCCCCCC(=O)NO)ccc12,"Histone deacetylase 8 (HDAC8, Homo sapiens, UniProt Q9BY41)",ITC,Tris-HCl buffer,293 K,,TΔS°,4.3 kcal/mol
CCCCCC(O)/C=C/C=O (stereo not drawn),"Monofunctional C1-tetrahydrofolate synthase, mitochondrial (MTHFD1L, Homo sapiens, UniProt Q6UB35)",competitive isoTOP-ABPP,"proteome, soluble, MDA-MB-231","100 µM, 60 min, together with: iodoacetamide probe","reference: DMSO over compound-treated, higher = stronger cysteine blockade",isoTOP-ABPP competition ratio,3
